# Results gathered from unrelated publications.
# Every numbered part comes from another study and shows a few of its results, in no order. Positions count from the first letter of the parent shown.

# Study 1
# Target: Centromere-binding protein 1, full length, His-tagged (CBF1, Saccharomyces cerevisiae, UniProt P17106, residues 1-351)
# Chain of UniProt P17106 (whole entry, looked up): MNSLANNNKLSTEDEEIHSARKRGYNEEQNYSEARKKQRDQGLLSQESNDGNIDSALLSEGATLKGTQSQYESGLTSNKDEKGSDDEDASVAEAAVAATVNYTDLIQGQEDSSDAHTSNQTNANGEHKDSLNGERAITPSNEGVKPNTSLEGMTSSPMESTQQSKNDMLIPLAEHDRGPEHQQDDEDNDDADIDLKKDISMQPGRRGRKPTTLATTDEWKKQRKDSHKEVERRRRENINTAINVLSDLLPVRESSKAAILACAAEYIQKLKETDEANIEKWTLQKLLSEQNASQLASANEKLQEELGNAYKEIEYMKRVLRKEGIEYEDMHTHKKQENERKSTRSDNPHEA
# Method: competition protein-binding microarray
# Molecule type: double-stranded DNA, one strand shown
# Medium: in vitro
# Tested at: 2 µM
# Notes: whole 60-bp probe, lowest competitor level
# Added: Pho4 competitor, 0.05 µM
# Direction: higher = stronger binding
# Constant ends, left off below: … GTCTTGATTCGCTTGACGCTGCTG
Strand,fluorescence intensity [a.u.]
CGTCCTAGTGATTGTGAAGTGGGTGCCATGAGGAAG,90.7
CACCACTTCATTCCACCCGTGGTGACGCTGAGACAA,58.5
CCTGCAGGGGTTCCACGCGTGCCAGGTAGCGGTTGA,57.5
AATCGAAAAATTTAGCACGTGGGACGGTAAGCATAA,1710
ATATTATCTTGCGAGCATGTGCACTCAATTTCGGGG,319
TGGCGTACGACGACTCATGTGTGTTAGATTGGGACA,61.7
CGGGGTTAAGTTTTTCACGTGGTATGCTTGCAGCAG,881
AAATTACTAAGTTGGAGGGTGGGTGACGCCGTATGA,64.4
AGGGACGAGGGTTGCCACGAGGAGGTAGGAAGGAGC,83.6
TGCGCAACAACTTGTCACTGTACTTTATGTCTAGAA,83.7
GGTGCCTTATTTCCGCACGTTTTTCAACATACGGCT,186
AAAGCGGTAATTTTTCACGTGGGGTCAAATATCTAT,1010
GAGCTACTTTTTCAACACGTGCATCCAACTTGTAGC,1770
TGTGTTGGATCTCAACACGGGGTACCTCCGTATAAG,116
AAGTGCTTTGTTCTTCACGTGCTTTTTACGTCTATG,1750
AACTGGTGGAGGTGGAACGTGTCCAGGCAGTGCAGG,77
CGCCCAAGGGACAATCACATGCAGAGAAGTTTACGA,269
AAATTACTAAGTTGCCCAGTGGGTGACGCCGTATGA,59.1
TTGAACAACCATCCCAACGTGAAGAAGCCAAGAAGG,69.9
ATTCGCATCTCTGGACACGTGCTTTATGTAGTTGAC,2590

# Study 2
# Target: ABI1, truncated, D143A, DHFR fusion (Arabidopsis thaliana)
# Method: DHFR PCA, deep sequencing
# Medium: yeast
# Notes: methotrexate growth selection, single substitutions
# Added: (+)-ABA 0.11 µM
# Relative to: wild-type fitted maximum
# Direction: higher = stronger binding
# Starting sequence: PYL1, truncated, DHFR fusion (Arabidopsis thaliana); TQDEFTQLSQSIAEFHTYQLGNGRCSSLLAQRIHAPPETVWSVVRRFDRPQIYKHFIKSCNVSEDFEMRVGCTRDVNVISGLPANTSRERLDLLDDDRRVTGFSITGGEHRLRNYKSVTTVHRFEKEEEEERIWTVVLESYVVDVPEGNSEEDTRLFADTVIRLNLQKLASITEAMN
Variant,relative binding score
P83A,27%
Q31C,4.87%
F56K,-3.84%
L166M,11.4%
P37G,-2.58%
L82E,8.52%
V121I,10.8%
M176K,14.1%
R123I,-9.24%
G108Q,-2.16%
T160L,9.94%
V121H,-6.49%
Q7L,26%
Q167H,11%
T106R,-4.18%
K168S,29.4%
I133K,17.1%
R32T,40.1%
T154S,-4.3%
K168H,26.9%

# Study 3
# Target: RNA binding protein fox-1 homolog 2, RRM domain, GST-SBP tag (RBFOX2, Homo sapiens, UniProt O43251-10, residues 100-194)
# Method: RNA Bind-n-Seq
# Molecule type: RNA
# Medium: in vitro
# Tested at: 365 nM
# Notes: natural RNA segment, single round, ends assumed
# Relative to: no-protein control
# Direction: higher = stronger binding
# Constant ends, left off below: GGGAGUUCUACAGUCCGACGAUC … UGGAAUUCUCGGGUGCCAA
# Target sequence (chain): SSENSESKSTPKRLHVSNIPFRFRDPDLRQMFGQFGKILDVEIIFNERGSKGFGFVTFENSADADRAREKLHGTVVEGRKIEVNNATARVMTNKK
Strand,RBNS enrichment (R)
GAUUUCUCUUUUACCUGUACAUAUGCUAAGUAAACAGAAUUUUAAAGGCAUGCAUUUCUUACAAUCUAUGUUGACUGACAGCCUUGUGUUCCUUGAAGGUUUUGAAUUUA,2.7
GUCCAACACAAAGGUAUAAUACAGCCUGUUGUCUAAAGCCAAGGAGUCAUAAAACCAUGAGAAAUAAAUAGGAAUCAAUAGUUAGUAGUGACAUUGGUGCUCUCUAGAAA,0.572
CGAUUAGAAUAGUCAAGUGGAUUAUGUAUAUUUAGUUGGAUAUUGGACAUCUUGGCAACACAAUCUUACAAAGGCAGAUUCAGCUGCCCCCAUACCACUGUGUUCCUUCU,0.272
CCUCCCUCCCUGCAGGCUUUUGUCUGGCAGGAGACAGCAACACCUCCUAGGACUCUGUACUUGAUUUUAAGCACUGGAGGAAACACCUCAGCAGUUUUGUGGUCUGCUAA,0.619
ACCCAGUAGCCCAUAGCACAAAUCUUGUGAACAUCUGAUAUGUUUUCAAGUGGCUACCUAGGAUAAGGUUCAUCAUUAGUACCCCCACCCCCACCCCACCGCCAUCUAGA,0.326
AGUCAGCGCAGUUUAGCAGUUAAAAGUGUAUUUUUGUUUAAUCAAACAAUAAUAAAGAGAGAUUUGUGGAAAAAUCCAGUUACGGGUGGAGGGGAAUCGGUUCAUCAAUU,0.62
CUUAUUUUCCUGAGUUAGAUCCCAGCCCAUGCCCAGCUGGAAGGGUCUCUUUUGGGUCAAAAUCAGUCCUUCAGCUCUAAGGUUGCCCAGCAAAGGAAUCUAGGAAUGAC,0.242
AUUUAUUGUAAGUUUUUAAAUGUAUAAAUUGUCUUAUAUUUCUUAACCUCUUUUAUAAAAAUUUUCCUAGAAGGUUUAUACUGCCUUCUUGCUUUAAAGCAAUUGGUCUA,0.756
AACCAAAUGUCCCAGACUCUCUUCAUGCCUCAGCCUUGCAGUGUAGCAUAGGUCUCUCUCUGCACAGUGUUGGUUCCUCCAGCCUAACCUUUGGCUUUGGGAAGGAAGAG,0.372
CAUAUGGAGGGGUGUCAGGUUCUAUGUGACCCAGUAAUGAGAAGAGCUUGAAGGUGAGGCCUGAGGGGCCACAGAUGAGUCAUGUUUUAGUGCUGAUGACAGAGGGGCCG,1.84
AACCGUAGCAGCAUGCGAAGCAGGGCUGUGAACUAUCACCACACAGUGCAUUGUCCCGUGGAGGUGUGACACGGGAGACACACGUGUGGAUCAUGUGAUCAUUGUGAACA,4.49
CUCACCUCCCUGUUCCAGGCUGAGAACUCAAAUGGUUACCCUGCUUCUUCCUACAAUGCUGUGUGAUAUGGGUGAACCCAGCCCCUGACCUUCCUCUAUCCCCUGCCCAU,0.763

# Study 4
# Target: TAR DNA-binding protein 43, full length, His tag (TARDBP, Homo sapiens, UniProt Q13148, residues 1-414)
# Method: RNA Bind-n-Seq
# Molecule type: RNA
# Medium: in vitro
# Tested at: 20 nM
# Notes: 6-mer, flanks averaged, single round
# Added: 150 mM LiCl
# Relative to: input library
# Direction: higher = stronger binding
Strand,6-mer enrichment (R)
CAGACA,0.819
GCCAUU,0.954
GCUGCG,1.03
AUAAUC,0.878
AGCAUG,1
ACAUGC,0.866
UGAACA,0.866
CUACGC,0.836
ACAUGU,0.94
GUGCAG,1.13
UUUUCC,1.14
ACGCCG,0.871
AAUAUC,0.869
GACCGC,0.877
AGUCGG,1.07
UACUGG,0.916
UGCGGU,1.11
AUGUUU,1.38
CGUAAC,0.821
UAGAAA,0.857
AUUAAU,0.978
UAAUCG,0.861
AAGCCC,0.927
GCUGAC,0.902
ACCAAA,0.829

# Study 5
# Target: Fragile X messenger ribonucleoprotein 1, C-terminal low-complexity region (Fmr1, Mus musculus, UniProt P35922)
# Method: RNA Bind-n-Seq
# Molecule type: RNA
# Medium: in vitro
# Tested at: 200 nM
# Notes: whole 134-nt RNA, ends assumed
# Added: 150 mM LiCl
# Relative to: input library
# Direction: higher = stronger binding
# Each molecule: 7-deaza-guanosine replaces G
# Constant ends, left off below: GGGAGUUCUACAGUCCGACGAUC … UGGAAUUCUCGGGUGUCAAGG
Strand,log2 enrichment
AAGUCCUGUGCUACACAUCGUAUGUACCGAAUCAAAUUUUUAAACCCAAAUUUAAAAAAGUAUUAUGUUACGCCGUUCGGAUCUGCACUU,-2.96
ACCAUGCAGGUGGGCAUCUUUGGGAAGUGGGGCAAAAAGGGGAUAGGGAGGGGGGUAACACUUUGGGAACAGGUGGUCCCAGGUCGUUUC,1.11
UGGCCCUGGUGGCAUGCGGGGAGGAAGAGGUGGCCUCAUGGAUCGUGGUGGUCCCGGUGGGAUGUUCAGAGGUGGCCGUGGUGGAGACAG,-0.213
UCCUCAAGUCCUGUGCUACACAUCGUAUGUACCGAAUCGGUGGUGGGUGGGGAAAGUAUUAUGUUACGCCGUUCGGAUCUGCACUUCCAG,0.886
UAACUUUAGAGGAGGAUCUCAUGGAUAUGGCAGUGGACGUGGAUUUGGGGAUGGCUAUAAUGGGUAUGGAGGAGGACCUGGAGGUGGCAA,-0.214
AAGUCCUGUGCUACACAUCGUAUGUACCGAAUCGGUUUGGAAAAAGGAAAAAAAGGAAAGUAUUAUGUUACGCCGUUCGGAUCUGCACUU,-1.58
UGGGAGGUGGAUUUUGUUUAUUUUUUUAGCUCAUUUCCAGGGGUGGGAAUUUUUUUUUAAUAUCUGUCAUGAAUAAAGUUGUUUUUGAAA,0.17
UCAAGUCCUGUGCUACACAUCGUAUGUACCGAAUCGGCCGGGGCCGGGGCCGGGAAAGUAUUAUGUUACGCCGUUCGGAUCUGCACUUCC,-0.508
UCCUGUGCUACACAUCGUAUGUACCGAAUCAAAUUUUUAAACCCCCAAACCCCCCCAAAAAAGUAUUAUGUUACGCCGUUCGGAUCUGCA,1.77
UCCUGUGCUACACAUCGUAUGUACCGAAUCGGGUUUUUGGGAAAAAAAGGGUUUUUGGGAAAGUAUUAUGUUACGCCGUUCGGAUCUGCA,-2.42
AAGUCCUGUGCUACACAUCGUAUGUACCGAAUCGGGAAAAAGGGUUUGGGAAAGGGAAAGUAUUAUGUUACGCCGUUCGGAUCUGCACUU,-2.2
